Experimental data collected from several papers.
± gives the spread as reported.
T1: itself; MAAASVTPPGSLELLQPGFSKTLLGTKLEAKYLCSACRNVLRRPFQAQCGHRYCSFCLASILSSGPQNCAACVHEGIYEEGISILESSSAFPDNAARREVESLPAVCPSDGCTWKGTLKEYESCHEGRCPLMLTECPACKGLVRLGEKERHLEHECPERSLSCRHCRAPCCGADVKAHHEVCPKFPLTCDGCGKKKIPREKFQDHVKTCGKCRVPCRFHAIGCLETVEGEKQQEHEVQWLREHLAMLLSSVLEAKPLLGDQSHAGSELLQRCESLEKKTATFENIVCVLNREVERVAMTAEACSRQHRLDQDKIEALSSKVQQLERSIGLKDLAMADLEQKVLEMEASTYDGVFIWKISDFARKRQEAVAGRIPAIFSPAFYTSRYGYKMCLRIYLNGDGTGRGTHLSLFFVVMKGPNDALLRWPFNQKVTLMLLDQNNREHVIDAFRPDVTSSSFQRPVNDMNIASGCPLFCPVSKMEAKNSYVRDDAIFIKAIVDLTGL
T2: itself; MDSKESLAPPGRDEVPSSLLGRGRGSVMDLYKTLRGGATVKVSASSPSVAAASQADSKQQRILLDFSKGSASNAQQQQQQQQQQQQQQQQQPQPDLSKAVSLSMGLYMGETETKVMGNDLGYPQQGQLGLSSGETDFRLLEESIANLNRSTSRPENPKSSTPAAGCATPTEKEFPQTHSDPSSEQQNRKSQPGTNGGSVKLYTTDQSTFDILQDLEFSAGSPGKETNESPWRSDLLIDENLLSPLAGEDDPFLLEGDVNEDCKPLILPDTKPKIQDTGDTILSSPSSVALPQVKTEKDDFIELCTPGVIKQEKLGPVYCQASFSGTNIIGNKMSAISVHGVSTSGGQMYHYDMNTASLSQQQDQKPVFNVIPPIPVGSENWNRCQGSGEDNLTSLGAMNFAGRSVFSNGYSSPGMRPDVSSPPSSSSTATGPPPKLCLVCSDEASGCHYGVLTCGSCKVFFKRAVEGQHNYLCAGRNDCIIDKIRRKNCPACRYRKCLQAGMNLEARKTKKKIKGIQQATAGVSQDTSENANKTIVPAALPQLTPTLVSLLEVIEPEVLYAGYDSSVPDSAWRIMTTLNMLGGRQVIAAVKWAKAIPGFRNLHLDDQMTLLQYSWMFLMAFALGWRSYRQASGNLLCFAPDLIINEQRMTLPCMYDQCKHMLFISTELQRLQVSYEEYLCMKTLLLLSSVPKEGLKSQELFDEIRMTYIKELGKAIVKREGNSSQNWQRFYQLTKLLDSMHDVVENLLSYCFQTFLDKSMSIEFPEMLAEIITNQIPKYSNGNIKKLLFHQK
B1: Nr3c1 (Mus musculus, UniProt P06537); chain MDSKESLAPPGRDEVPSSLLGRGRGSVMDLYKTLRGGATVKVSASSPSVAAASQADSKQQRILLDFSKGSASNAQQQQQQQQQQQQQQQQQPQPDLSKAVSLSMGLYMGETETKVMGNDLGYPQQGQLGLSSGETDFRLLEESIANLNRSTSRPENPKSSTPAAGCATPTEKEFPQTHSDPSSEQQNRKSQPGTNGGSVKLYTTDQSTFDILQDLEFSAGSPGKETNESPWRSDLLIDENLLSPLAGEDDPFLLEGDVNEDCKPLILPDTKPKIQDTGDTILSSPSSVALPQVKTEKDDFIELCTPGVIKQEKLGPVYCQASFSGTNIIGNKMSAISVHGVSTSGGQMYHYDMNTASLSQQQDQKPVFNVIPPIPVGSENWNRCQGSGEDNLTSLGAMNFAGRSVFSNGYSSPGMRPDVSSPPSSSSTATGPPPKLCLVCSDEASGCHYGVLTCGSCKVFFKRAVEGQHNYLCAGRNDCIIDKIRRKNCPACRYRKCLQAGMNLEARKTKKKIKGIQQATAGVSQDTSENANKTIVPAALPQLTPTLVSLLEVIEPEVLYAGYDSSVPDSAWRIMTTLNMLGGRQVIAAVKWAKAIPGFRNLHLDDQMTLLQYSWMFLMAFALGWRSYRQASGNLLCFAPDLIINEQRMTLPCMYDQCKHMLFISTELQRLQVSYEEYLCMKTLLLLSSVPKEGLKSQELFDEIRMTYIKELGKAIVKREGNSSQNWQRFYQLTKLLDSMHDVVENLLSYCFQTFLDKSMSIEFPEMLAEIITNQIPKYSNGNIKKLLFHQK
B2: UGT1A9 (Homo sapiens, UniProt O60656); chain GKLLVVPMDGSHWFTMRSVVEKLILRGHEVVVVMPEVSWQLGRSLNCTVKTYSTSYTLEDLDREFKAFAHAQWKAQVRSIYSLLMGSYNDIFDLFFSNCRSLFKDKKLVEYLKESSFDAVFLDPFDNCGLIVAKYFSLPSVVFARGILCHYLEEGAQCPAPLSYVPRILLGFSDAMTFKERVRNHIMHLEEHLLCHRFFKNALEIASEILQTPVTEYDLYSHTSIWLLRTDFVLDYPKPVMPNMIFIGGINCHQGKPLPMEFEAYINASGEHGIVVFSLGSMVSEIPEKKAMAIADALGKIPQTVLWRYTGTRPSNLANNTILVKWLPQNDLLGHPMTRAFITHAGSHGVYESICNGVPMVMMPLFGDQMDNAKRMETKGAGVTLNVLEMTSEDLENALKAVINDKSYKENIMRLSSLHKDRPVEPLDLAVFWVEFVMRHKGAPHLRPAAHDLTWYQYHSLDVIGFLLAVVLTVAFITFKCCAYGYRKCLGKKGRVKKAHKSKTH
Sequence of UniProt Q5S007 (whole entry, looked up): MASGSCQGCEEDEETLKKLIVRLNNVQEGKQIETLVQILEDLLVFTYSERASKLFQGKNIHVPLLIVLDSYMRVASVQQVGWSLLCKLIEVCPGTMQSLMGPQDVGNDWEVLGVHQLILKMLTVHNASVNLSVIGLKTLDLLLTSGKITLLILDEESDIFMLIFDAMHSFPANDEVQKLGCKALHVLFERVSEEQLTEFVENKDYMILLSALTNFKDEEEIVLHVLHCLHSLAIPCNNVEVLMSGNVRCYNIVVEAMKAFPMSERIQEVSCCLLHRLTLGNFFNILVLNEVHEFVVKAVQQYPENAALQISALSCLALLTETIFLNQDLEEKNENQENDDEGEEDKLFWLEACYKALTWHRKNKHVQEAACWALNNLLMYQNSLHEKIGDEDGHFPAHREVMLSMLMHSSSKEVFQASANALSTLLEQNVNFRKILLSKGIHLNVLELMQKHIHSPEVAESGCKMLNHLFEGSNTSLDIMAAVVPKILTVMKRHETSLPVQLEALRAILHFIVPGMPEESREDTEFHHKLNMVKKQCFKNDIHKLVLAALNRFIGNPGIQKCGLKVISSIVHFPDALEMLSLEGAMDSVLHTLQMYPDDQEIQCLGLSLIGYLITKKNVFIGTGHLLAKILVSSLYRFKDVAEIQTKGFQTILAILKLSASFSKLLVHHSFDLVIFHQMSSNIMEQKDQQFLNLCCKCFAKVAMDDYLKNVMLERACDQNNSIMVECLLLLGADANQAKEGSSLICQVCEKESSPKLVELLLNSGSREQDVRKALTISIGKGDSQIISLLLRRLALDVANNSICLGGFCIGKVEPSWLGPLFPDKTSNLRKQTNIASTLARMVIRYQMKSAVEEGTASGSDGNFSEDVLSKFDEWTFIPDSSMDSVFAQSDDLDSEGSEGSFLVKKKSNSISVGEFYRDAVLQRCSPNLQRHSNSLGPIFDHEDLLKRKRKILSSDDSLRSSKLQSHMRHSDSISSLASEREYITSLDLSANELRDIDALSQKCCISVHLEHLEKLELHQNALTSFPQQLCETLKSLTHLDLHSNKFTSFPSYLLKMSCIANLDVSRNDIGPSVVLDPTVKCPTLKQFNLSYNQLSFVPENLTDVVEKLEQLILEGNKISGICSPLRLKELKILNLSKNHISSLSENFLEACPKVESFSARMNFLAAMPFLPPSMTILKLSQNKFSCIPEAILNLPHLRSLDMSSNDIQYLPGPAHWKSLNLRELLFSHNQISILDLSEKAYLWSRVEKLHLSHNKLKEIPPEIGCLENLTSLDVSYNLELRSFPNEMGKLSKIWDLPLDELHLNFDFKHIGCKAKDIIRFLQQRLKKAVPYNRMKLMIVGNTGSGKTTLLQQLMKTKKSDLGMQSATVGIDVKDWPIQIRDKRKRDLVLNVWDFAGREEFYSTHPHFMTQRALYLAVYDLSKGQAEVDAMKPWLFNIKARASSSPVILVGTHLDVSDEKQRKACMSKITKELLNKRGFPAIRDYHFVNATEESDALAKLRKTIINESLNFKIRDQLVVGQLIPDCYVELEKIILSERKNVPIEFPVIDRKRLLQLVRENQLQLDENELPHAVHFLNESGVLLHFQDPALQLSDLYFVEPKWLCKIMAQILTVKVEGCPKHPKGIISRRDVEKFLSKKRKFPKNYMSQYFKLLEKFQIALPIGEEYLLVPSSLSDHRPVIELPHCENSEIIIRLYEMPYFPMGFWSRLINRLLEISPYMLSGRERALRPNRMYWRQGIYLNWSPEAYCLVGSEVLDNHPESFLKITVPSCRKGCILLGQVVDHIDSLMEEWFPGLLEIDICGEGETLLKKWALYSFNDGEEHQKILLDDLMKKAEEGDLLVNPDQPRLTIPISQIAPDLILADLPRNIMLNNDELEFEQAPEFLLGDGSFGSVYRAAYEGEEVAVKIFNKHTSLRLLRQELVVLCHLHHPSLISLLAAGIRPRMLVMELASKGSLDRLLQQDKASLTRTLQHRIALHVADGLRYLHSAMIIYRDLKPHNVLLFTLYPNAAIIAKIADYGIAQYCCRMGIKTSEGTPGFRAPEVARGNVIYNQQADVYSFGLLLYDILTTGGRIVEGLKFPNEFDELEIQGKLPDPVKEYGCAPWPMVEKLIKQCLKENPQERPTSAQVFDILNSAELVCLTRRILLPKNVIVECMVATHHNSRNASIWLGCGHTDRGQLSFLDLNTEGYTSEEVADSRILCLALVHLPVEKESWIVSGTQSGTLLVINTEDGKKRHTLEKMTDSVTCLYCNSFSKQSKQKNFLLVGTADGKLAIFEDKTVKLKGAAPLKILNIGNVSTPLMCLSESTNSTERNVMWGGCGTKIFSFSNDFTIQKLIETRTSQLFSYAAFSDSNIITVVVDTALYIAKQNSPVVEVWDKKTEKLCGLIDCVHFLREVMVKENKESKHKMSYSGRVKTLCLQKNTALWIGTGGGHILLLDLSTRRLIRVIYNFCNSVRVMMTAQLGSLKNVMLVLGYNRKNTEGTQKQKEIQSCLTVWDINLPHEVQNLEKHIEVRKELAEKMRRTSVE
Sequence of UniProt Q9HC16 (whole entry, looked up): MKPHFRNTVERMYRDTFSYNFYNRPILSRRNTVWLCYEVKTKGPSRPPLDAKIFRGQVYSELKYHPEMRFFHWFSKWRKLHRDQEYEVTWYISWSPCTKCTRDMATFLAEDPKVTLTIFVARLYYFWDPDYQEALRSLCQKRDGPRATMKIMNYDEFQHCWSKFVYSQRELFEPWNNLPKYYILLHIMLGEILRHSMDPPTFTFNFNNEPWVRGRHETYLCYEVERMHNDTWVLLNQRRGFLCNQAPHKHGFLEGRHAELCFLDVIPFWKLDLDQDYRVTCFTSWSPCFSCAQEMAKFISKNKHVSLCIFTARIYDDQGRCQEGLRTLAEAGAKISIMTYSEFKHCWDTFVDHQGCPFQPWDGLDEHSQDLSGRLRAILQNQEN

TRAF2 (Homo sapiens, UniProt Q12933)
FRET1 (T1, itself; flow cytometric FRET; HeLa; live cells, two-step FRET; higher = more FRET): 3.9 MFI

IgA J chain-deficient (Mus musculus)
monomer to dimer ratio (itself; native gel or EMSA; serum; densitometry): 10 times

CDH1 fragment (Gallus gallus)
separation force (itself; dual pipette assay; 0.5-60 min): 200 nN

CRYGS N15D/Q121E/N144D/N54D/Q93E/Q64E/Q17E/Q107E/Q71E (Homo sapiens)
subunits per oligomer (itself; SEC-MALS): 2

STEP61 (Rattus norvegicus)
phosphatase activity (itself; pNPP dephosphorylation; cortex, aged rats; baseline: young rats, higher = more activity): 47.5%

HLA-DRA/HLA-DRB1 heterodimer, on cells (Homo sapiens)
fraction of 1-particle spots (itself; single-particle fluorescence imaging): 63 ± 10%

TPDYLMQLMNDKKLMSSLPNFSGIFNHLERLLDEEISRVRKDMYNDTLNGSTEK (Qki 14-67 C35S (Mus musculus, UniProt Q9QYS9))
melting temperature (itself; CD thermal melting; 50 µM, His-tagged): 69 °C

cps-6 (Caenorhabditis elegans)
relative self-association (itself; co-IP; 3 days, in animals, added: paraquat 200 µM; baseline: non-treated animals, higher = more association): 56%

Sh C96S/C301S/C308S/C505T (Drosophila melanogaster)
recovery time from inactivation (itself; paired-pulse electrophysiology; cysteine-less Shaker): 170 ms

WWC1 C-terminal truncation (Mus musculus)
relative co-precipitation (itself; co-IP; HEK293T; baseline: wild-type KIBRA, higher = more self-association): 1 fold

PYCARD (Homo sapiens, UniProt Q9ULZ3)
backward rate constant (itself; real-time NMR; 501 µM): 0.05 h

CD3E (Homo sapiens, UniProt P07766)
association quotient (itself; TCCD microscopy; PM1; higher = more association): 28.4 ± 4.3

APOBEC3G (Homo sapiens, UniProt Q9HC16)
rate constant k-2 (itself; optical tweezers; two-step binding model): 2.8e-05 s⁻¹

LRRK2 (Homo sapiens, UniProt Q5S007)
autophosphorylation (itself; in vitro autophosphorylation; dimer fraction; baseline: LMW monomer fraction, higher = more phosphorylation): 8.4 fold

ESR1 hormone-binding domain G521R
spots with two-step bleaching (itself; SiMPull; HeLa, lysate; 4-OHT treated; higher = more dimers): 60%

CENPA (Homo sapiens, UniProt P49450)
tagged to untagged ratio (itself; co-IP): 2 ratio tagged:untagged

amyloid beta fragment
relative band intensity (itself; SDS-PAGE immunoblot; trimers, lipidated apoE4; baseline: sample without apoE, higher = more trimer remaining): 130%

RYR1 fragment (Oryctolagus cuniculus)
FRET efficiency (itself; FRET; myotubes; in cells, puncta): 3.6 ± 0.4%

HEXIM1 L287R/L294R (Homo sapiens)
anomaly coefficient α (itself; FCS; U2OS; in nucleoplasm): > 0.8

MMP9 proMMP-9, trimer E402A (Homo sapiens)
multimer fraction (itself; non-reducing SDS-PAGE): 30.3%

B1 (Nr3c1)
molecular brightness (T2, itself; number and brightness microscopy; 3134-GR KO; nucleoplasm, in cells, added: Cort 100 nM; baseline: monomeric control, higher = more oligomerised): 1.71 fold

EGFR fragment (Homo sapiens)
dimerization KD (itself; specific kinase activity, poly Glu:Tyr substrate; solution): 200 nM

PYCARD (Homo sapiens, UniProt Q9ULZ3-2)
backward rate constant (itself; real-time NMR; 704 µM): 0.001 h

EPHA2 N483L/R485E (Homo sapiens)
cross-correlation fraction (itself; PIE-FCCS; COS7; no ligand, live cells; higher = more dimerization): 0.15

Rag1 fragment (Mus musculus)
relative dimer remaining (itself; SEC; baseline: dimer fraction before dialysis, higher = more dimer): 55%

ClpX fragment T66C/P388C, Cys66-Cys388 disulfide (Escherichia coli)
Vmax decrease (itself; GFP-ssrA degradation; reduced with dithiothreitol, added: ClpP; baseline: oxidized enzyme, higher = larger decrease): 4 fold

B2 (UGT1A9)
Km (COc1cc(/C=C/C(=O)CC(=O)/C=C/c2ccc(O)c(OC)c2)ccc1O; steady-state kinetics; pH 7.4, 37 °C): 35.4 µM
